Measurements from different studies.
Every numbered part comes from another study and shows a few of its results, in no order.

Set 1
Target: Hepatocyte nuclear factor 3-alpha (Foxa1, Mus musculus, UniProt P35582, residues 1-468, full length assumed)
Chain of UniProt P35582 (whole entry, looked up): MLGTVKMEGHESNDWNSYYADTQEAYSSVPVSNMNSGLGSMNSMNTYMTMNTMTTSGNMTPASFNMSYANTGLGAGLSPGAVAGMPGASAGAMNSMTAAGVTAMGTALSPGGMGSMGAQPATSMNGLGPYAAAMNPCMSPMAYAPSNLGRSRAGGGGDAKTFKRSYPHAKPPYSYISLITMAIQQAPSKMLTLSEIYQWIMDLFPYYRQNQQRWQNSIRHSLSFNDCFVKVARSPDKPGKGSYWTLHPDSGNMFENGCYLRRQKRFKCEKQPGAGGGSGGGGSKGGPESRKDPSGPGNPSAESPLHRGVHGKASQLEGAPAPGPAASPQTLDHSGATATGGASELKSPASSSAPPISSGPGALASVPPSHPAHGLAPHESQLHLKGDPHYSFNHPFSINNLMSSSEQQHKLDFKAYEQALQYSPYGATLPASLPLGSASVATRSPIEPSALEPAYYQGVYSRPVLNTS
Method: EMSA with sequencing
Form: double-stranded DNA, one strand shown
Sample: in vitro
Concentration: 10 and 20 nM
Notes: whole designed probe, mean of two concentrations, ends assumed
Relative to: negative control set to 0
Reading: higher = stronger binding
| Strand | normalised bound fraction [ratio] |
| --- | --- |
| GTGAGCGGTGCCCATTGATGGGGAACATCTTCCCCCTCTTCCTTGCCCCACCAGCTCACCTTCCCGGGTTATTTGCAGATAGGAAAATAAATAAAGCCGGCATTCGTTAACCCTCTTCTGGCGCAAACTGCACATTGGTCTGGATCTAACATGGTCCTTTGGCGACGCCAGGCTCCGGGAGAGCAAAGCACCGTGTCAGGGCCATGATCCGGGGTGGCCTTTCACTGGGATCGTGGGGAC | 0.337 |
| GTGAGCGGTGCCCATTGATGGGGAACATCTTCCCCCTCTTCCTTGCCCCACCAGCTCACCTTCCCGGGTTATTTGCAGATAGGAAAATAAATAAAGCCGGCATTCGTTAACCCTCTTCTGGCGCAAACTGCTGTTTGCTCTGGATGAATCATGGTCCTTTGGCGACGCCAGGCTCCGGGAGAGCAAAGCACCGTAGCCGAGTGCTGATCCGGGGTGGCCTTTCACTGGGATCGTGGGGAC | 0.338 |
| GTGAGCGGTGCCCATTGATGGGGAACAATTCACATAAGTTCATTTTAAATGACTTAGTCAGTGCCAGCACTTATACCCATTTTCTACTTATCGGTGACATGAGTTAAGACACCTGACAATGTAATCTGCAATATGATCTCATTTGTGTGGATGATTTAAAATTTTATGTAAAGTTGTGATTTTTCAAGCCATCCTCAGTTTAGGGATATCTCCTTGAGCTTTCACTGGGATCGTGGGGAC | -0.0733 |
| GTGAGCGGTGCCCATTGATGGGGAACTAATTAAGACATATCTAAAAGTATCAACAGTATCGGGAAGAAAACATGAAGTTCACATGATACCCCAATGCTTCTAGAAAAGTCACAAATGAGTAAACAAGGAATATTATAACTGATATGTGTGATTCAGATAAAGACTAGGGTGGTACATGAAAAATGGCTTAAGTCAAGGGTGTAATTGAGACTAGATCAATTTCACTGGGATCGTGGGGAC | 0.28 |
| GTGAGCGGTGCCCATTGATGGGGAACCTCATTCCTTGCTTCCGCCAATAATCTGACTAGTAAAGAAGTCACTGCATGCCACAAATTGTCAGTGCTGACTTCCTCAACAAGGAAGTATAAGTAAATAAATATTAATATATATGCAAAGAGTGACTCAGTTCCATCTTGAGAATACCAACTCCTGATGCCAACTGATTGTCAGTCATGGCTACAACAGGAGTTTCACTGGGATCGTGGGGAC | 0.429 |

Set 2
Target: Sal-like protein 4, full length isoform B (SALL4, Homo sapiens, UniProt Q9UJQ4-2, residues 1-616)
Method: universal PBM
Form: double-stranded DNA, one strand shown
Sample: in vitro
Concentration: not given
Notes: 8-mer, flanks averaged, mean of replicates
Reading: higher = stronger binding
Residues (chain): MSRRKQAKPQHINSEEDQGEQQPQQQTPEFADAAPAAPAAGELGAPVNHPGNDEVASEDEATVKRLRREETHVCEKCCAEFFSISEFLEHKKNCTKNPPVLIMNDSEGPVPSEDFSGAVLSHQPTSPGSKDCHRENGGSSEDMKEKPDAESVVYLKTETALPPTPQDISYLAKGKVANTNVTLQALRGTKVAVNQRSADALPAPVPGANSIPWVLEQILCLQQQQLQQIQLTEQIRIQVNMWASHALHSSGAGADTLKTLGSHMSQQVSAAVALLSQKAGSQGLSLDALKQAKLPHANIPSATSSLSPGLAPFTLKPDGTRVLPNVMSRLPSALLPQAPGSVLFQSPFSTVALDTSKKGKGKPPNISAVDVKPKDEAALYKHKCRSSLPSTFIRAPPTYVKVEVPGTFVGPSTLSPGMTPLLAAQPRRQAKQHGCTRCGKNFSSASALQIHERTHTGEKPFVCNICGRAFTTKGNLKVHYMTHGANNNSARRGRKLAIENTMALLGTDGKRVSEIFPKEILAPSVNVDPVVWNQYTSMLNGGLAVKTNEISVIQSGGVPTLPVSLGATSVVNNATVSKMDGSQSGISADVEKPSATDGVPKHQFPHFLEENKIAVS
| Strand | E-score |
| --- | --- |
| CGGAATAA | 0.045 |
| AGATGTAG | -0.0595 |
| CTGGTGGA | -0.199 |
| CAGAGAGG | -0.258 |
| GTGTAGGA | 0.0525 |
| TGCACTAA | 0.187 |
| AAGTGTCC | -0.0113 |

Set 3
Target: RNA binding protein fox-1 homolog 2, RRM domain, GST-SBP tag (RBFOX2, Homo sapiens, UniProt O43251-10, residues 100-194)
Method: RNA Bind-n-Seq
Form: RNA
Sample: in vitro
Concentration: 365 nM
Notes: natural RNA segment, single round, ends assumed
Relative to: no-protein control
Reading: higher = stronger binding
Construct (chain): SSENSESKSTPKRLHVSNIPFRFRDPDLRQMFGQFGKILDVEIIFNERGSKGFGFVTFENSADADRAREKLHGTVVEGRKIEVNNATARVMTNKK
| Strand | RBNS enrichment (R) |
| --- | --- |
| GGGAGUUCUACAGUCCGACGAUCUACCCUUGGAUCAGCCAAGCCAGACUUGGAGCUUUGACAAGGAACGUUCCCGGGAAACGACCAAACGAACCGAACACAUAUAAACAAGGCACAGAGAAGUGGCCACAGCCUGGAAUUCUCGGGUGCCAA | 0.372 |
| GGGAGUUCUACAGUCCGACGAUCUCCCUCCAUCUGGUCCCUGCCCCUCAGCCAGCGGAGGAGCCCGCUGGGCCCUUCCCUGCCCGUCCCCGCUCCUCCCUGGCCCCCGCACAGGUAAGUGAGGGUGAGGGGGGUGGAAUUCUCGGGUGCCAA | 0.178 |
| GGGAGUUCUACAGUCCGACGAUCCCUUUCCUGGGGGAUGUGCACGGCAGCUUGAGCCUGUCACGUGGUCAAGGCCCGGCCCCAUCAGAGGCUGGGGGAGGCGGCACAUUGGCAGUGUGUCACACUGAGCUGGGUGGAAUUCUCGGGUGCCAA | 0.224 |
| GGGAGUUCUACAGUCCGACGAUCUCUCUAACACCAGCACACUUCUUACGAGAUGUACUCAACCUGGCCUACUGGCCAGGUCACCAAGCAGUGGCCUUUAUCUGACAUGCUCACUUUAUUAUCCAUGUUUUAAAUGGAAUUCUCGGGUGCCAA | 0.479 |

Single results of other studies
| Substance | target | assay | test system | setting | scale | measurement | result |
| --- | --- | --- | --- | --- | --- | --- | --- |
| PhoQ, residues 284 288 289 292 302 303 TYGVAM | PhoP, residues 12 14 15 18 19 NQGLL (Escherichia coli, UniProt P23836) | Sort-seq, measured: YFP reporter | E. coli | PhoQ-PhoP variant library, added: 10 µM Mg2+ | relative to: high Mg2+ state, higher = stronger signaling | fold induction | 8.11 |

Some of these lines once more (set 1):
| Strand | normalised bound fraction [ratio] |
| --- | --- |
| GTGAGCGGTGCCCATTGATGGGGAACTAATTAAGACATATCTAAAAGTATCAACAGTATCGGGAAGAAAACATGAAGTTCACATGATACCCCAATGCTTCTAGAAAAGTCACAAATGAGTAAACAAGGAATATTATAACTGATATGTGTGATTCAGATAAAGACTAGGGTGGTACATGAAAAATGGCTTAAGTCAAGGGTGTAATTGAGACTAGATCAATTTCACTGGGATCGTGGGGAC | 0.28 |
| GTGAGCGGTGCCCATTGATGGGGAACCTCATTCCTTGCTTCCGCCAATAATCTGACTAGTAAAGAAGTCACTGCATGCCACAAATTGTCAGTGCTGACTTCCTCAACAAGGAAGTATAAGTAAATAAATATTAATATATATGCAAAGAGTGACTCAGTTCCATCTTGAGAATACCAACTCCTGATGCCAACTGATTGTCAGTCATGGCTACAACAGGAGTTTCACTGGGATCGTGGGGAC | 0.429 |
